Published values collected from several papers.
Every numbered part comes from another study and shows a few of its results, in no order. Positions count from the first letter of the parent shown.
UniProt Q16513, sequence (whole entry, looked up): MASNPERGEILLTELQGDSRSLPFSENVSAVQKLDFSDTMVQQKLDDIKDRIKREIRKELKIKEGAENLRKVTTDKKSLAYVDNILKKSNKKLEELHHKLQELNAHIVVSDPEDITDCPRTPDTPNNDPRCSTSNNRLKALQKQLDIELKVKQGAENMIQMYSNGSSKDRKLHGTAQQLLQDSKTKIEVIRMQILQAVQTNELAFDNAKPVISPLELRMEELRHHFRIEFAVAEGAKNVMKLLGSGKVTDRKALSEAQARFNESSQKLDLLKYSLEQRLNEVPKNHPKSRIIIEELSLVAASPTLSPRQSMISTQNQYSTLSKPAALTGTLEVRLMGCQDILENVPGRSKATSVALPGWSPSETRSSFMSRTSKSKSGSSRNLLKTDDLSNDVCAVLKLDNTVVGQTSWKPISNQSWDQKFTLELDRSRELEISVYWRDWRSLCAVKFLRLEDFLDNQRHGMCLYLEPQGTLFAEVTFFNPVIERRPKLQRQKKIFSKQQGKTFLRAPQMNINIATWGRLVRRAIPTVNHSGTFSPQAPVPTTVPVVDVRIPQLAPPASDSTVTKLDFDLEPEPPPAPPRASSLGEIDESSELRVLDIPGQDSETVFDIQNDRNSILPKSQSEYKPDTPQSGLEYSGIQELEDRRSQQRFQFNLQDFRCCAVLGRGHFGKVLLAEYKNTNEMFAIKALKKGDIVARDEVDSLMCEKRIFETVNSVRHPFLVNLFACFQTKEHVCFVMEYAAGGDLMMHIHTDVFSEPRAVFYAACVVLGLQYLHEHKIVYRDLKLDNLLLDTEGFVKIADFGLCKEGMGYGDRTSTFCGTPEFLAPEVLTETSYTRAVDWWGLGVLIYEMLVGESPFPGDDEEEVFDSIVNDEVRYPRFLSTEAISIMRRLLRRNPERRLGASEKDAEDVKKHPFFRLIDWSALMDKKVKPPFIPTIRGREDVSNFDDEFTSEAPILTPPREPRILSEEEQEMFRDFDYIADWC
UniProt P07949, sequence (whole entry, looked up): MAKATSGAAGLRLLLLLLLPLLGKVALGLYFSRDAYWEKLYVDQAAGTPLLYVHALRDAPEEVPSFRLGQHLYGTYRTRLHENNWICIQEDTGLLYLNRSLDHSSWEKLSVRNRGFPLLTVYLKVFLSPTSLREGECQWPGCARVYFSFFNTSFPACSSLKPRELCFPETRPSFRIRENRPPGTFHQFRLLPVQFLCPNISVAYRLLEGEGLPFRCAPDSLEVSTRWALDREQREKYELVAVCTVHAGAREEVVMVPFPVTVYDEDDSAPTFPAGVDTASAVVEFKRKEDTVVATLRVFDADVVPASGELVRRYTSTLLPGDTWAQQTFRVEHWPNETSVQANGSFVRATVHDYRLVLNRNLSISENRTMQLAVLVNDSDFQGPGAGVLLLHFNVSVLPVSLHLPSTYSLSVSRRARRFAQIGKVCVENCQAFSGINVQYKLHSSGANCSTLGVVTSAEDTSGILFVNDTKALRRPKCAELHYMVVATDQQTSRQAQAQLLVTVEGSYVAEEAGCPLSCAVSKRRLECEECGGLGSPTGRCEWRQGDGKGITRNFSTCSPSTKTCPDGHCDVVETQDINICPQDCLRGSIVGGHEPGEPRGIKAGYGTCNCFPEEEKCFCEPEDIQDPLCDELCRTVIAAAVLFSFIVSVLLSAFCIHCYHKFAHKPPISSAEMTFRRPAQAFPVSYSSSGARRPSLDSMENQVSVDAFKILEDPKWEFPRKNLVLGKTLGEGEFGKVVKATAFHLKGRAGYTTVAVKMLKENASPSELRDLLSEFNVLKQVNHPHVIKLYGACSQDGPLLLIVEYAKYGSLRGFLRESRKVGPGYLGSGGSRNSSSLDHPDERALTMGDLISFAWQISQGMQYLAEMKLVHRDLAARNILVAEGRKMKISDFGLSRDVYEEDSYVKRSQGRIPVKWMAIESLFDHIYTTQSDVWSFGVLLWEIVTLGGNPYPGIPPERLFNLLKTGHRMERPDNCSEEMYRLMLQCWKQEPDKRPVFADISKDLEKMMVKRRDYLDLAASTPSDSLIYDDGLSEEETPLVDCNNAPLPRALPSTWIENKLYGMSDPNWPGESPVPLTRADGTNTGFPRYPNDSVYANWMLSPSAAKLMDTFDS
UniProt Q8TD19, sequence (whole entry, looked up): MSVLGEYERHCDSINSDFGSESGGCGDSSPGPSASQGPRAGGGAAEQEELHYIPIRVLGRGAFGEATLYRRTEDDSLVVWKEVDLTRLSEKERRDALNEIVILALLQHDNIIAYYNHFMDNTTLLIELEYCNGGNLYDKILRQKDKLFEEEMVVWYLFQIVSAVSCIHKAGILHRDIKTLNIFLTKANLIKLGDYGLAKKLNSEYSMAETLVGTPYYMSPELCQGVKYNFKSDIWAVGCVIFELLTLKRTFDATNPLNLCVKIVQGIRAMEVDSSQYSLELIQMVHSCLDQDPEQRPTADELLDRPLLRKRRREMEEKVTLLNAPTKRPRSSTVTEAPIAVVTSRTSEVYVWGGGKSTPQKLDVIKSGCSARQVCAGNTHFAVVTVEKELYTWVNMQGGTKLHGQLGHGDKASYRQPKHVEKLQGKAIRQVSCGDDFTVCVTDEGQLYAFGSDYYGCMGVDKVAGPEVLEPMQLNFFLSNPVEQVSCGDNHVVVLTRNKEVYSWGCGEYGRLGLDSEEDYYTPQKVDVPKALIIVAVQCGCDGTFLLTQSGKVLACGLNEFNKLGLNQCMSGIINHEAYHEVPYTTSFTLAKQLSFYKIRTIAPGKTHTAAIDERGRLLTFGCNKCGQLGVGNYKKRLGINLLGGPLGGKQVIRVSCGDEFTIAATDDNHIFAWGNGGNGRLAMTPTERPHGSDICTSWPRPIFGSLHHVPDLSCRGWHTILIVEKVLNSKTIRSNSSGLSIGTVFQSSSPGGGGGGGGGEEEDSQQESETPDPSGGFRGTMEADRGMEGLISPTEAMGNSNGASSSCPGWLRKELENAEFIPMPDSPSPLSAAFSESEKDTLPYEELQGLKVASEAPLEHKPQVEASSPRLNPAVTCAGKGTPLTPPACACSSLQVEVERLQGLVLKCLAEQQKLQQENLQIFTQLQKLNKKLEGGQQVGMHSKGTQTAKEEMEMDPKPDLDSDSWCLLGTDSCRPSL
UniProt Q96NX5, sequence (whole entry, looked up): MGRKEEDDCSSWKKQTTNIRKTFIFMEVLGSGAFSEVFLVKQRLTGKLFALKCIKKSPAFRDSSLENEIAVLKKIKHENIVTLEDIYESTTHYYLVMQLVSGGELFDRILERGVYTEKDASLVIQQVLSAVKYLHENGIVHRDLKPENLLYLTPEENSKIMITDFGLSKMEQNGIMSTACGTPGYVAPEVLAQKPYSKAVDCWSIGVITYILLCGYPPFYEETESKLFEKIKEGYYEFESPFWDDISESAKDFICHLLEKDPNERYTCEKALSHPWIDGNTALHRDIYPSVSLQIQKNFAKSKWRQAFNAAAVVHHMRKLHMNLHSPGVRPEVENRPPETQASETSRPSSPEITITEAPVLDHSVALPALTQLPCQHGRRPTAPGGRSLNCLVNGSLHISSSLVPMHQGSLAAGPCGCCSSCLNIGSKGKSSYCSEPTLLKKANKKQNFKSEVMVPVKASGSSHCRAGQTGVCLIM

Series 1 — effect on: enzyme activity; mode: inhibitor; concentration: 0.5 µM; reference: control
Compound: N/C(=N\[N+](=O)[O-])N/N=C\c1ccc(-c2cccc([N+](=O)[O-])c2)o1
target	remaining activity
RET (Homo sapiens, UniProt P07949)	99.9%
NEK9 (Homo sapiens, UniProt Q8TD19)	91.8%
CAMK1G (Homo sapiens, UniProt Q96NX5)	104%
PKN2 (Homo sapiens, UniProt Q16513)	92.6%
ROS1 (Homo sapiens, UniProt P08922)	97.5%

Series 2 — effect on: ligand displacement; concentration: 10 µM
Target: Kappa-type opioid receptor (OPRK1, Homo sapiens, UniProt P41145)
UniProt P41145, sequence (whole entry, looked up): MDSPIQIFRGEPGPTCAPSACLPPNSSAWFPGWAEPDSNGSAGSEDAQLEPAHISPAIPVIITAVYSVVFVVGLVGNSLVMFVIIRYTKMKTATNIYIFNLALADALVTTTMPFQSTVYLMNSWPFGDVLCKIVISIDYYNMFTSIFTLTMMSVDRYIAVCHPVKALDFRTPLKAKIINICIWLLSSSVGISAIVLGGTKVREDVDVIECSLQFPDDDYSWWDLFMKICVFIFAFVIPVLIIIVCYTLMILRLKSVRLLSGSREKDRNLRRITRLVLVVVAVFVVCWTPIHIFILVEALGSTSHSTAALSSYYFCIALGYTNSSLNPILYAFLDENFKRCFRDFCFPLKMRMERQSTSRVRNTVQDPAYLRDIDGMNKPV
Structure (SMILES)	inhibition
CCOc1ccc(S(=O)(=O)Nc2ccc(Cl)cc2C#Cc2cnc(C(=O)O)cc2OC)c2ncccc12	-10.8%
O=c1nc(-c2ccccn2)sc2ccccc12	1.65%
CNC(=O)Nc1ccc2c(c1)CC[C@]21OC(=O)N(CC(=O)N(Cc2ccc(F)cc2)[C@@H](C)C(F)(F)F)C1=O	18.5%
Nc1cnc(N2CCc3cc(S(=O)(=O)Nc4c(F)cc(Cl)cc4F)cc(N4CCCC4=O)c32)nc1	14.9%
CC(=O)Nc1ncc(CN2CCC[C@H](Cc3cc(C)nc(C)c3)C2)s1	75.1%
C[C@H](c1ccc(F)cc1)N(Cc1cccc(C(=O)O)c1)C(=O)c1cnc2ccccc2c1	-17.8%
NS(=O)(=O)c1cc(NC(=O)Cc2ccccc2)ccc1Oc1cccc(Cl)c1	20.3%
O=S(=O)(NC1CCC(c2cc(F)ccc2F)(S(=O)(=O)c2ccc(Cl)cc2)CC1)C(F)(F)F (centres unmarked)	24.6%
Cn1cc(Cl)c2c(Oc3c(F)cc(Nc4cc(Cl)nc(N)n4)cc3F)ccnc21	54.4%
Cc1ccc(-c2cnc([C@@]3(O)CC[C@H](C(=O)O)C(C)(C)C3)s2)cc1Nc1cccc(C(F)(F)F)n1	-5.83%
O=C1NC(c2ccccn2)Sc2ccccc21 (centres unmarked)	4.68%
CN(C)C(=O)c1sc2nc(N3CCC(S(C)(=O)=O)CC3)cc(C(F)(F)F)c2c1N	9.53%
CN(C)CC#Cc1ccc(OCCCc2sc(N3CCc4cccc(C(=O)Nc5nc6ccccc6s5)c4C3)nc2C(=O)O)c(F)c1	-14.9%

Series 3 — cell line: HEK-293T/ACE2; concentration: concentration not given; time: 16 (unit not given); reference: vehicle
Structure (SMILES)	viability [%]
CN1CCC[C@@H]1Cc1c[nH]c2ccc(CCS(=O)(=O)c3ccccc3)cc12	101
CC(C)C[C@H](CN)CC(=O)O	101
O=C1C(CC[S+]([O-])c2ccccc2)C(=O)N(c2ccccc2)N1c1ccccc1 (centres unmarked)	99.7
O=c1ccn([C@@H]2O[C@H](CO)[C@@H](O)[C@H]2O)c(=O)[nH]1	101

Series 4 — target: vanadate, free oxyanion; method: microfluidic competitive inhibition; matrix: in vitro, cell-free expressed; concentration: not given; direction: lower = stronger binding
Notes: derived from inhibition constants, unchanged parent 676 nM
Parent: PafA, mature enzyme, eGFP fusion (Elizabethkingia meningoseptica, UniProt Q9KJX5); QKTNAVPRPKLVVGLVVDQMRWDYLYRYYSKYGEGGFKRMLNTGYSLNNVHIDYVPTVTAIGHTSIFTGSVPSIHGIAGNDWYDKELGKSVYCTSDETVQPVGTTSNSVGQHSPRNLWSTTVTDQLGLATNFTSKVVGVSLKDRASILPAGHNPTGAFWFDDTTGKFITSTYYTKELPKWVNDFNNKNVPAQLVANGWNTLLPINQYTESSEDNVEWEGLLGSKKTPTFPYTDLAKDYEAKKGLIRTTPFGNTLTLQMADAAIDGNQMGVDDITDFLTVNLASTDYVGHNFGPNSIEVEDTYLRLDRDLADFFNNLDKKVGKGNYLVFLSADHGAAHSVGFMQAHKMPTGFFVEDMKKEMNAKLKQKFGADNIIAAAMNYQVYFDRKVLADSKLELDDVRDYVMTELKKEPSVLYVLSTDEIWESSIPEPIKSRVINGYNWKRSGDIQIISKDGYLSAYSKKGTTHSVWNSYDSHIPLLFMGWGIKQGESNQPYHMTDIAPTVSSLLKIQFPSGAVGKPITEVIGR
Substitution	oxyanion analog dissociation constant
I436G	807 nM
E354V	608 nM
V279A	571 nM
L177G	664 nM
V353G	886 nM
D271G	540 nM
V13A	681 nM
E218G	706 nM

Other studies, line by line — effect on: binding; method: phage display NGS; form: peptide; concentration: concentration not given; reference: beads alone
Target: UDP-N-acetylglucosamine--peptide N-acetylglucosaminyltransferase 110 kDa subunit (OGT, Homo sapiens, UniProt O15294)
Sequence (O15294 1-1046, as in one of the studies): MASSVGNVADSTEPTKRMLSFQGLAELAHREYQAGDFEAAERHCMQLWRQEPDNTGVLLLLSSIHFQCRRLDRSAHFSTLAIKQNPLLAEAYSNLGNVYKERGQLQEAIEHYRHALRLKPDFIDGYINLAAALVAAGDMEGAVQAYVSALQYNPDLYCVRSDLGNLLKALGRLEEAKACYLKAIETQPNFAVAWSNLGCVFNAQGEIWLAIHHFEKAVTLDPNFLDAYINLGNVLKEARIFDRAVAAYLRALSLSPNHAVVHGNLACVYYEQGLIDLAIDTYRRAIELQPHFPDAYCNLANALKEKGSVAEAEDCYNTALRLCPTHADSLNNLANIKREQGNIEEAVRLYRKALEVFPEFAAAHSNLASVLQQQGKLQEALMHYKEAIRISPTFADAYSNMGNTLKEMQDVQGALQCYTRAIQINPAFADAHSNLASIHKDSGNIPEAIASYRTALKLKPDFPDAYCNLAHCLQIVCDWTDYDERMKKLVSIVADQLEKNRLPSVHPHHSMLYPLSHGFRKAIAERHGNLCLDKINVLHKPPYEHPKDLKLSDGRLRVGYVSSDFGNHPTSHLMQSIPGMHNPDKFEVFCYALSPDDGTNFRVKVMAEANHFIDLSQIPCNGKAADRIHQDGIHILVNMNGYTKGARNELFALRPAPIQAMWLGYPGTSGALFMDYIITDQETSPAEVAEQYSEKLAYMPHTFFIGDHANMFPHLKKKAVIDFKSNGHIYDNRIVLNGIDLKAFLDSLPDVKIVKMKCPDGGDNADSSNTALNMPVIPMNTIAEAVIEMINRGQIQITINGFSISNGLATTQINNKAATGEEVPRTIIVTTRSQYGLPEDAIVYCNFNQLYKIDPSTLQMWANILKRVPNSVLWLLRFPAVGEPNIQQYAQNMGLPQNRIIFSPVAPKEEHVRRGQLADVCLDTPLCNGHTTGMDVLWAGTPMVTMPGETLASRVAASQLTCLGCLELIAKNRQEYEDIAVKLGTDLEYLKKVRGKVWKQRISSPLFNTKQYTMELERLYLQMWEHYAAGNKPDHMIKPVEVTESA
Molecule	enrichment fold change
TAPFYPPAYQI	1
TAPFYPPAYAI	0.589

A few entries again (series 2):
Structure (SMILES)	inhibition
C[C@H](c1ccc(F)cc1)N(Cc1cccc(C(=O)O)c1)C(=O)c1cnc2ccccc2c1	-17.8%
NS(=O)(=O)c1cc(NC(=O)Cc2ccccc2)ccc1Oc1cccc(Cl)c1	20.3%
O=S(=O)(NC1CCC(c2cc(F)ccc2F)(S(=O)(=O)c2ccc(Cl)cc2)CC1)C(F)(F)F (centres unmarked)	24.6%
Cn1cc(Cl)c2c(Oc3c(F)cc(Nc4cc(Cl)nc(N)n4)cc3F)ccnc21	54.4%
Cc1ccc(-c2cnc([C@@]3(O)CC[C@H](C(=O)O)C(C)(C)C3)s2)cc1Nc1cccc(C(F)(F)F)n1	-5.83%
